Experimental data of several laboratories.
Every numbered part comes from another study and shows a few of its results, in no order. Positions count from the first letter of the parent shown.

Block 1
Target: RNA binding protein fox-1 homolog 2, RRM domain, GST-SBP tag (RBFOX2, Homo sapiens, UniProt O43251-10, residues 100-194)
Technique: RNA Bind-n-Seq
Molecule type: RNA
Medium: in vitro
Concentration: 365 nM
Setting: natural RNA segment, single round, ends assumed
Baseline: no-protein control
Reading: higher = stronger binding
Quantity: RBNS enrichment (R)
All sequences stand within: GGGAGUUCUACAGUCCGACGAUC … UGGAAUUCUCGGGUGCCAA
Construct (chain): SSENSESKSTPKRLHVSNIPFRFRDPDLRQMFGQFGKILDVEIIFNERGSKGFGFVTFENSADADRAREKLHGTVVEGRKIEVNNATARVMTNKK
Strand = AAGCUUAACCAUACAGUAUUUCUAAGCAAAAUAAUGUACUCCAUUCUUUUGUCCAUGCUCUCAUUGCUGAUUUGUUCUUGCAGGACUUAGAGCACUUUGUUAAUGUUCUU; result = 0.659
Strand = AGUGUGUGGGACUUGGUCACUCCAUGUCAGACACACGAGCAGAGAGGAACACAAACCACUGUGGAGCCUGAAGCUCCUUAAGAAGAGUCCACAACAGCUGGUGGGAGGGU; result = 0.748
Strand = CUCAACCCAGCUUUUUGUCAUUCACUUCCUUUUGUUCUCUCUCUGGUCACUGCCCUUACCUGACCCUCACAGAAAGAGAGCUCUGAGCAGGUGAGGGGGUCUGCGGUGGC; result = 0.846
Strand = AGUCCUACGCUGCUGCUAACGACAAUACGACGGCUUACUCUGCUACUCGAGAACUAUUUUUAUGUAAUUAAUGUAUGCUUUCUUGUUUAUAAAUGCCUGAUUUAAAAAAA; result = 0.8
Strand = AUCAACCACAACAUAGCAGGCAUUCCCUUGCAGCUGCAGUACAGUAGCAGUGUCCUUUUCUGAGGAAGGAAGUCUUAAACCCUUUCCCCCCACCCCCUGGGAUGACUGCC; result = 0.299
Strand = UGAUAUUCUAGGGUUGGUUUGUAGAUUCAAAUAAUCCAGAAAUAUACCUAAUAAGAUUGAGUGAAAAAUUUGAGUCAAAUAUCUAGGGCAUUCACAGAGUAGCUGUGAGU; result = 0.623

Block 2
Target: Transcription factor Sp1 (SP1, Homo sapiens, UniProt P08047, residues 1-785, full length assumed)
Sequence of UniProt P08047 (whole entry, looked up): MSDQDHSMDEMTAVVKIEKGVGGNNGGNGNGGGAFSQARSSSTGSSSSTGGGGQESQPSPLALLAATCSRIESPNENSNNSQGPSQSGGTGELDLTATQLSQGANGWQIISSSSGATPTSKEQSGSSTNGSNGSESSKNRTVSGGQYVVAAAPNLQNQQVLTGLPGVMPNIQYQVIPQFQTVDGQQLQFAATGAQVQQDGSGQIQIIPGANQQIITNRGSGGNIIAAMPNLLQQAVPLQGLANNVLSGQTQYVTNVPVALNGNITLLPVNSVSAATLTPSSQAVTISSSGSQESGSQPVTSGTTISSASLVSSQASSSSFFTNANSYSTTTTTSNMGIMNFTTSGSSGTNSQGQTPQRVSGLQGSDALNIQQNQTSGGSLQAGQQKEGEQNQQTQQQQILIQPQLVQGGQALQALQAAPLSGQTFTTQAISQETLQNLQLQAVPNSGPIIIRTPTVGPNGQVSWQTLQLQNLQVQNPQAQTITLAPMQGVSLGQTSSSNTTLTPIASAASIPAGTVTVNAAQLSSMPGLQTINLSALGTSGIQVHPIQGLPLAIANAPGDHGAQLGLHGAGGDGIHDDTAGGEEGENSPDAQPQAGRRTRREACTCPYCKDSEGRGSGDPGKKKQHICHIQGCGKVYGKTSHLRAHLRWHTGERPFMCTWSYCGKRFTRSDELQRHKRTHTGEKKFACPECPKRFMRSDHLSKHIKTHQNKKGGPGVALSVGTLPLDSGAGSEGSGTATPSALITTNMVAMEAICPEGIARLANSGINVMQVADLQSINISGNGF
Technique: protein-binding microarray
Molecule type: double-stranded DNA, one strand shown
Medium: in vitro
Concentration: not given
Setting: k-mer, scored over probes, only values ≥0.25
Reading: higher = stronger binding
Quantity: E-score
Strand = AGGGGTCG; result = 0.276
Strand = AAGGGGAT; result = 0.265
Strand = CACGTGGA; result = 0.259
Strand = ATACCACC; result = 0.306
Strand = TACTATAA; result = 0.264
Strand = CCGCCCAC; result = 0.493

Block 3
Target: CCNE2, cyclin fold, Cln2 fusion (human)
Technique: yeast growth competition, sequencing
Medium: yeast
Setting: strong parent motif
Baseline: not given
Reading: higher = stronger binding
Quantity: normalised enrichment score
Parent: BRCA2 docking peptide (human); PSIKRNLLNEFDR; partner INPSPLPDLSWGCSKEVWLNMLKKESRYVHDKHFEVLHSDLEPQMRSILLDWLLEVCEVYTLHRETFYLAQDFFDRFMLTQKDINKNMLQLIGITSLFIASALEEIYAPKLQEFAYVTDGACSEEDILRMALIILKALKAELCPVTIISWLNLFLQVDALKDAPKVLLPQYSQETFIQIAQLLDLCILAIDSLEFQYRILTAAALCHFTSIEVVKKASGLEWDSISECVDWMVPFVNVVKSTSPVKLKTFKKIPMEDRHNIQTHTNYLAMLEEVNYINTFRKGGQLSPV
Substitution = N6F; result = 1.44
Substitution = E10D; result = 2.52
Substitution = N6T; result = 0.76
Substitution = K4W; result = -0.25

Mixed results
Substance = PhoQ, residues 284 288 289 292 302 303 SLCLSL; target = PhoP, residues 12 14 15 18 19 TPWLV (Escherichia coli, UniProt P23836); assay = Sort-seq, refers to: YFP reporter; system = E. coli; setting = PhoQ-PhoP variant library, added: 10 µM Mg2+; how to read = baseline: high Mg2+ state, higher = stronger signaling; quantity = fold induction; result = 9.72

Repeated from above (mixed results):
Substance = PhoQ, residues 284 288 289 292 302 303 SLCLSL; target = PhoP, residues 12 14 15 18 19 TPWLV (Escherichia coli, UniProt P23836); assay = Sort-seq, refers to: YFP reporter; system = E. coli; setting = PhoQ-PhoP variant library, added: 10 µM Mg2+; how to read = baseline: high Mg2+ state, higher = stronger signaling; quantity = fold induction; result = 9.72
